Published values of several laboratories.
Compare with care: the assays were run in different laboratories. Values joined by “and” are separate records of one study, mostly repeats; a detail may differ. ± marks the error that the study gave.
Oprd1: Delta-type opioid receptor (Oprd1, Rattus norvegicus, UniProt P33533)
UniProt P33533, sequence (whole entry, looked up): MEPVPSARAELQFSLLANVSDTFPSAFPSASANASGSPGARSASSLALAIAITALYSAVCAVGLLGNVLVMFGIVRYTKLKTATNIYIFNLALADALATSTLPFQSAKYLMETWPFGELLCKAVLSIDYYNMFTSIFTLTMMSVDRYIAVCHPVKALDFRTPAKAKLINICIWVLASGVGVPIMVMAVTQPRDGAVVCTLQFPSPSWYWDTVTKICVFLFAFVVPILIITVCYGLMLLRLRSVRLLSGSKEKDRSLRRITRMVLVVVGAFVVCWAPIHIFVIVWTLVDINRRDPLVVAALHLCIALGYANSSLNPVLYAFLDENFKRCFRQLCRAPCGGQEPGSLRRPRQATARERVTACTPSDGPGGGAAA
PAL1 Y110F: PAL1 (Petroselinum crispum, UniProt P24481, Y110F)
ADRA1A: Alpha-1A adrenergic receptor (ADRA1A, Homo sapiens, UniProt P35348)
UniProt P54310, sequence (whole entry, looked up): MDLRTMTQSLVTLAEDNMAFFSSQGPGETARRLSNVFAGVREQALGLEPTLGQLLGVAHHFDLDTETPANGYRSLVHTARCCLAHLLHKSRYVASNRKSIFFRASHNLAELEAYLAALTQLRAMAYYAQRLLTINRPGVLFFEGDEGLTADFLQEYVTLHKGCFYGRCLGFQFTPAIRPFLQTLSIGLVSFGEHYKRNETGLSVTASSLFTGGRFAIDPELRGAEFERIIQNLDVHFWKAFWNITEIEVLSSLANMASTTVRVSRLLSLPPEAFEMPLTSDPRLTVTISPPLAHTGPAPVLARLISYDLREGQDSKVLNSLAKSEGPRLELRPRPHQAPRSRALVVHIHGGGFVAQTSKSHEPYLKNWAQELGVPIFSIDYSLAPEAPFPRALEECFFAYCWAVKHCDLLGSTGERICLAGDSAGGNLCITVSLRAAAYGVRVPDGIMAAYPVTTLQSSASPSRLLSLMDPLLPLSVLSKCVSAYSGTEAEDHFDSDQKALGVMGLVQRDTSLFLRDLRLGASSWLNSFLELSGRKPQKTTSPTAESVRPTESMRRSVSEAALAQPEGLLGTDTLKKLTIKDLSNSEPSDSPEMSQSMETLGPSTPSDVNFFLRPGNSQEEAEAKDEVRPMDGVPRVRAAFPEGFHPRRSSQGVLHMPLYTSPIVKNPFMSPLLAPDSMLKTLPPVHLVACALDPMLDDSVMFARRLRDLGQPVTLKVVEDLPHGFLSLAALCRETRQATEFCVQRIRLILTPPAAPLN
UniProt P35348, sequence (whole entry, looked up): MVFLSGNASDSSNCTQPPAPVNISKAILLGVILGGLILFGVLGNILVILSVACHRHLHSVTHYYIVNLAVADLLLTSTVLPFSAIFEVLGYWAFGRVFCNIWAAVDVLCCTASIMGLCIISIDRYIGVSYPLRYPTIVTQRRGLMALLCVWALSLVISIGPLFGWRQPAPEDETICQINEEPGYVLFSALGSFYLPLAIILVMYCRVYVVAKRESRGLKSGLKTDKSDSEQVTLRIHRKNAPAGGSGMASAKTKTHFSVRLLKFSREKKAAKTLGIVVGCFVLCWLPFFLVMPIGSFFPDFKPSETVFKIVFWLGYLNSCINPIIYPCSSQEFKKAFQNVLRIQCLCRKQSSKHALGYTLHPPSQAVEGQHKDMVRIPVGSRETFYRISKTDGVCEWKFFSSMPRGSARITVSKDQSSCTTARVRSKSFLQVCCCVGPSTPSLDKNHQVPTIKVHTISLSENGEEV
UniProt Q007T0, sequence (whole entry, looked up): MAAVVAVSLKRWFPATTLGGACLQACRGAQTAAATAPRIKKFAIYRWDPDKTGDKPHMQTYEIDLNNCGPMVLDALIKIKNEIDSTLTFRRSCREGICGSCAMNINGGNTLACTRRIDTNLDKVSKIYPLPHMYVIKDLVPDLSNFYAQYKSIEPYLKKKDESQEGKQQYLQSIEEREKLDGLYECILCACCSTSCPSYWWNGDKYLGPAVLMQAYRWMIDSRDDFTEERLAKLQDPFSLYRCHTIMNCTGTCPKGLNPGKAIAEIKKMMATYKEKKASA
UniProt D0VWV4, sequence (whole entry, looked up): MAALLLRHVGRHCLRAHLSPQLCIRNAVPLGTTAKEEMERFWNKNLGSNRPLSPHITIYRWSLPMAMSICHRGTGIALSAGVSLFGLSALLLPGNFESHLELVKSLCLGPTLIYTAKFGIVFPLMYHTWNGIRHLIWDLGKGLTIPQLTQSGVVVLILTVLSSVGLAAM
UniProt A5GZW8, sequence (whole entry, looked up): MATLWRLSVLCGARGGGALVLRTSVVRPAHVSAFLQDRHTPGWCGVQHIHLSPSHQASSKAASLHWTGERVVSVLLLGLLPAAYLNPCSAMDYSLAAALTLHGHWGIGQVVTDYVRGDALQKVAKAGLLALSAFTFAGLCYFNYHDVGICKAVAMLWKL
UniProt P35372, sequence (whole entry, looked up): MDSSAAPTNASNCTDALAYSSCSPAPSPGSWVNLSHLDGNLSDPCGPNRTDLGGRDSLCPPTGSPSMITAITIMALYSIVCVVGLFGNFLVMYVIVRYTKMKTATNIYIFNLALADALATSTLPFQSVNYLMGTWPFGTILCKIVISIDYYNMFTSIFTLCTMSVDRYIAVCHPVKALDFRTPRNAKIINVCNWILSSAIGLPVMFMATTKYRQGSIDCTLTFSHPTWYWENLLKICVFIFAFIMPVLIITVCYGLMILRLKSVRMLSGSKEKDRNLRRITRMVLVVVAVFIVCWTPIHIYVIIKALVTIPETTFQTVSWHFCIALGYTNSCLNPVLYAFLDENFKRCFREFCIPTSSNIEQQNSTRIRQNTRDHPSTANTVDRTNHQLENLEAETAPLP
UniProt Q8NI60, sequence (whole entry, looked up): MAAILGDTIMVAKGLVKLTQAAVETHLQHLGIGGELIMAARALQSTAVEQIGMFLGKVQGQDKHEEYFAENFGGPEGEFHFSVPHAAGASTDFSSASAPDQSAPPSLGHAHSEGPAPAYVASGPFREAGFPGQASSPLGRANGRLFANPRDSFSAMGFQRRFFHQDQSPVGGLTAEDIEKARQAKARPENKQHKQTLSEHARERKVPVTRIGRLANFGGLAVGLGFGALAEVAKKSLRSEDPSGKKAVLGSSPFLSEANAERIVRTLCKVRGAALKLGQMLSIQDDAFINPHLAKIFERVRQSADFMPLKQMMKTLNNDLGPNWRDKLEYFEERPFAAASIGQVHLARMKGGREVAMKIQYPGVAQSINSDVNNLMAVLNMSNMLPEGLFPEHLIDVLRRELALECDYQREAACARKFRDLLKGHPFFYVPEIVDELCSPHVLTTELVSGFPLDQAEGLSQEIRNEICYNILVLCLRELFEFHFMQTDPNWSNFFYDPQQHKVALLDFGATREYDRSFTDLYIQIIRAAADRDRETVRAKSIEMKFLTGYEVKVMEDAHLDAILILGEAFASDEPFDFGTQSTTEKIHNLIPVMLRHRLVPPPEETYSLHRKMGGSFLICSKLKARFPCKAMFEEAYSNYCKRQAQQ
UniProt Q08460, sequence (whole entry, looked up): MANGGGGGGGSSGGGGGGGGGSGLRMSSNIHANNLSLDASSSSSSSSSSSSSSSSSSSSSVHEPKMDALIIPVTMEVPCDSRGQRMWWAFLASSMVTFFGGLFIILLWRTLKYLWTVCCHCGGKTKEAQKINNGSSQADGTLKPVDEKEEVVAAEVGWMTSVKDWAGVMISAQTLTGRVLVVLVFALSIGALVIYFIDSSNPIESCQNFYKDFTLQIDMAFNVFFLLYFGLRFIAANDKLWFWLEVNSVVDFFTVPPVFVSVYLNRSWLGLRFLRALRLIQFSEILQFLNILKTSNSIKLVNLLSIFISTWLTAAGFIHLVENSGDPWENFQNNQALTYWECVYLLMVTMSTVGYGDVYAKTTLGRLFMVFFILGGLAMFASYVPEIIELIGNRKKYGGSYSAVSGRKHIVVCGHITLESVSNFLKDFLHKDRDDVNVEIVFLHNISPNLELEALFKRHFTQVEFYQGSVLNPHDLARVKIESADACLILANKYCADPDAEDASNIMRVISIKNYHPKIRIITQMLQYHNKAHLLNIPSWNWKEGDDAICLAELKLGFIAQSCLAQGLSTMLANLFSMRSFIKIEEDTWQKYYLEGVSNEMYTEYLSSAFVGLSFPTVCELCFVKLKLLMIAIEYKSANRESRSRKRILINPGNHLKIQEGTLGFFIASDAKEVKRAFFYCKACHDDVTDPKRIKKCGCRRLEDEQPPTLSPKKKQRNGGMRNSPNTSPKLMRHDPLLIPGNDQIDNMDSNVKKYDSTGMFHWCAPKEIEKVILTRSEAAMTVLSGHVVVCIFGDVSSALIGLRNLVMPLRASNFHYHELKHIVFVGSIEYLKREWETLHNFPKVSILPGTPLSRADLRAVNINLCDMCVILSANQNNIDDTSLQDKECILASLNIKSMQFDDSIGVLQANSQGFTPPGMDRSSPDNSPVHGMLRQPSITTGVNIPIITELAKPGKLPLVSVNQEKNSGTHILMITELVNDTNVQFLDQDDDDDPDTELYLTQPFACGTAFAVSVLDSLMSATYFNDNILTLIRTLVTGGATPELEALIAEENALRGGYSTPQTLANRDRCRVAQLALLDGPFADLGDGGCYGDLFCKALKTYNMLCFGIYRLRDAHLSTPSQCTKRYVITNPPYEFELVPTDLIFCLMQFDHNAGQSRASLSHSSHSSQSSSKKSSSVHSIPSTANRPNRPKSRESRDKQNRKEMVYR
UniProt P38489, sequence (whole entry, looked up): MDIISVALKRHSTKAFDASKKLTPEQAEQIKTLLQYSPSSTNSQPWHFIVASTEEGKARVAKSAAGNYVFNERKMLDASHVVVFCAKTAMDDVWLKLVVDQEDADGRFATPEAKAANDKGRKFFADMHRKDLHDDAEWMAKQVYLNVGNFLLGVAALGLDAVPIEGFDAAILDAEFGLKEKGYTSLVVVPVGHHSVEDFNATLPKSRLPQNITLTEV
UniProt O95881, sequence (whole entry, looked up): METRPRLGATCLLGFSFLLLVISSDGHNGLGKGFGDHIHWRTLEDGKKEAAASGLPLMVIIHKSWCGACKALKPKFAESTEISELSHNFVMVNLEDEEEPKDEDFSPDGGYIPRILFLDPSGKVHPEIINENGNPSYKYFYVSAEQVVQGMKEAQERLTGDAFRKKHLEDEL

Compound | target or system | assay | test system | setting | how to read | endpoint | result
CC[C@@H](C)[C@@H]1CN([C@H](Cc2ccc3ccccc3c2)CN2CCC[C@H]2CN2CCNC[C@@H]2Cc2ccc3ccccc3c2)CCN1CCc1ccc(Cl)c(Cl)c1 | Oprd1 | radioligand binding | rat brain membranes | 500 nM, pH 7.5, 25 °C, with: 2 nM [3H]DPDPE |  | remaining binding | 90.7%
CN(C)CCCSC(=S)N1CCN(C(=O)/C=C/c2coc3ccccc3c2=O)CC1 | Nucleoprotein (N, Tomato spotted wilt virus, UniProt P25999, Y184A) | binding, microscale thermophoresis |  | 1.953 µM | dose series | MST response | 838 a.u.
C=C(c1ccccc1)[C@H](N)P(=O)(O)O | PAL1 Y110F | binding, ITC |  |  |  | ΔG | -6.5 kcal/mol
C#CCCCCOc1ccc2c(c1)CCCN2C(=O)CCl | Thioredoxin domain-containing protein 12 (TXNDC12, Homo sapiens, UniProt O95881) | mass spectrometry profiling | Ramos cell lysate | 100 µM over 10 µM, UniProt O95881 | relative to: high over low concentration | reactivity ratio | 1.02
CC[C@@H](C)[C@@H](NC(=O)[C@@H](CCC(N)=O)NC(=O)[C@H](NC(=O)[C@H]1CCCN1C(=O)[C@H](NC(=O)[C@@H](CO)NC(=O)[C@@H](Cc1ccccc1)NC(=O)[C@H]1CCCN1C(=O)[C@@H](CCC(N)=O)NC(=O)[C@H](N)CCSC)[C@H](C)CC)C(C)C)C(=O)N[C@@H](C(=O)N[C@H](CC(C)C)C(=O)N[C@H](CCC(N)=O)C(=O)NCC(=O)N[C@H](CO)C(=O)N[C@H](CCCNC(=N)N)C(=O)N[C@H](CCCNC(=N)N)C(=O)N[C@H](CCCNC(=N)N)C(=O)N[C@H](CCC(N)=O)C(=O)NCC(=O)N[C@H](CCCNC(=N)N)C(N)=O)[C@H](C)O | Kcnma1 (Mus musculus, UniProt Q08460) | ion current, blocker, inside-out patch clamp | Xenopus oocytes | +120 mV, with: 10 µM cytosolic Ca2+ |  | Hill coefficient | 0.88
Cc1ccc(N2CC3CCC(C2)N3C)cc1C(=O)N[C@H](C)c1cc(-c2cnn(C)c2)nc2ccccc12 | Calpain-1 catalytic subunit (CAPN1, Homo sapiens, UniProt P07384) | enzyme activity |  | 30 µM, 0.5 h |  | remaining activity | 113%
Cc1cc(-c2ccc3ccccc3c2)nnc1NCCN1CCN(C)CC1 | ADRA1A | antagonist |  | 10000 nM | relative to: control | activity | 3%
Cc1nnc(C(C)C)n1C1CC2CCC(C1)N2CCC(NC(=O)Cc1ccc(-c2nncnn2)cc1)c1ccccc1 (stereo not shown) | C-C chemokine receptor type 5 (CCR5, Homo sapiens, UniProt P51681) | calcium mobilisation, antagonist | HEK-293T expressing CCR5 | top constrained to 1, with: PSC-RANTES |  | bottom of curve | 0.124 fraction of maximum
Cc1cc(Nc2nc(C[C@@]3(C(=O)O)CCN(Cc4cccc(Cl)c4F)[C@H](C)C3)cc(C)c2F)[nH]n1 | Histamine H1 receptor (HRH1, Homo sapiens, UniProt P35367) | agonist |  | 10 µM |  | activation | -0.03%
CCCC[C@H]1CNCCN1C[C@@H]1CCCN1C[C@@H](Cc1ccc2ccccc2c1)N1CCN(CCCC2CCCC2)[C@H](Cc2ccc(O)cc2)C1 | Oprd1 | radioligand binding | rat brain membranes | 500 nM, pH 7.5, 25 °C, with: 2 nM [3H]DPDPE |  | remaining binding | 78.2%
C[C@H](NCc1ccc(-c2ccc(C(F)(F)F)cc2)cc1)C(N)=O | Atypical kinase COQ8A, mitochondrial (COQ8A, Homo sapiens, UniProt Q8NI60) | cell-free assay, competition with immobilised ligand |  | 1 µM |  | inhibition | 11%
CC(C)CC(O)(CC(C)C)c1cn(C(=O)N2CCCC2)nn1 | Lipe (Mus musculus, UniProt P54310) | enzyme activity, inhibitor | mouse, brain | i.p., 0.8 mg/kg, 4 h, single peptide | relative to: vehicle | ratio of ratios | 0.4 and 0.57 and 0.52
O=C1NC2(CC2)COc2ncc(F)cc2[C@H]2COCCN2c2ccn3ncc1c3n2 |  |  | Sprague-Dawley rat, female, blood | oral, 5 mg/kg/day, 4 weeks, end of treatment, subacute toxicity |  | mean corpuscular haemoglobin | 20.1 ± 1 pg
CCN(N=Cc1cnc2ccc(Br)cn12)S(=O)(=O)c1cc([N+](=O)[O-])ccc1C | Phosphatidylinositol 4,5-bisphosphate 3-kinase catalytic subunit alpha isoform (PIK3CA, Homo sapiens, UniProt P42336, H855E) |  |  |  | relative to: wild-type p110α | IC50 fold change | 2.5
O=C1NC(=O)c2c1c1cc(F)c[n+]3c1c1c2c2cc(O)ccc2[n]1[Ru-4]312([N]=C=S)[S+]3CC[S+]1CC[S+]2CC3 (stereo not shown) | cGMP-dependent protein kinase 1 (PRKG1, Homo sapiens, UniProt Q13976) | enzyme activity |  | 100 nM, human enzyme, with: 10 µM ATP | relative to: untreated | remaining activity | 10%
O=C(O)c1cccc(CP(=O)(O)O)n1 | Beta-lactamase L1 (Stenotrophomonas maltophilia, UniProt P52700) | enzyme activity, inhibitor |  | with: nitrocefin |  | kon | 5500 ± 1500 M⁻¹ s⁻¹
COc1c(N2CC3CCCNC3C2)c(F)cc2c(=O)c(C(=O)OCc3cnc([N+](=O)[O-])n3C)cn(C3CC3)c12 (stereo not shown) | Oxygen-insensitive NAD(P)H nitroreductase (nfsB, Escherichia coli K-12, UniProt P38489) | substrate |  | with: NADH 100 µM |  | initial rate | 0.08 ± 0.003 µM/min
CN(C)[C@H]1C[C@@]23CC[C@@]4(O2)C(=CC[C@]2(C)[C@@H](c5ccc6ccncc6c5)CC[C@H]24)C=C3[C@@H](O)[C@@H]1O | Serine-protein kinase ATM (ATM, Homo sapiens, UniProt Q13315) | ATP probe labelling, inhibitor, KiNativ profiling |  | 1 µM |  | inhibition | -16.8%
C/C(=N\OCCCN1CCCCC1)c1ccc(C(F)(F)F)cc1 | Androgen receptor (AR, Homo sapiens, UniProt P10275) | reporter gene, agonist, luciferase reporter |  | 10 µM |  | activation | -0.51%
CON(C(=O)c1cn(C)nc1C(F)F)C(C)Cc1c(Cl)cc(Cl)cc1Cl (stereo not shown) | SDHD/SDHC/SDHB (Sus scrofa, UniProt A5GZW8+D0VWV4+Q007T0) | enzyme activity, inhibitor, DCIP reduction | pig | 1 µM, with: DCIP 80 µM |  | reaction velocity | 0.00547 µM/s and 0.00654 µM/s
N[C@H](C(=O)N1CCCC1)C1CCN(c2nccc3c(-c4ncc(Cl)cc4Cl)cccc23)CC1 | ADRA1A | functional response, agonist |  | 10 µM |  | response | 5%
CCOC(=O)[C@@H]1Cc2c(cc([N+](=O)[O-])cc2[N+](=O)[O-])[C@H](O)[C@]12C(=O)Nc1ccc(Br)cc12 | Receptor tyrosine-protein kinase erbB-4 (ERBB4, Homo sapiens, UniProt Q15303) | binding, competition with immobilised ligand |  | 0.1 µM |  | remaining binding | 58%
CC(C)[C@H]1NC(=O)C[C@H]2/C=C/CCSSC[C@@H](NC1=O)C(=O)N[C@H](Cc1cccc3ccccc13)C(=O)NCC(=O)O2 | Tyrosine-protein kinase receptor UFO (AXL, Homo sapiens, UniProt P30530) | enzyme activity, inhibitor |  | 10 µM |  | inhibition | 7.8%
CS(C)(=O)=Nc1ccc(-c2ccc(-c3nc4cc(O[C@@H]5CO[C@H]6[C@@H]5OC[C@H]6O)[nH]c4cc3F)cc2)cc1 | Fibroblast growth factor receptor 1 (FGFR1, Homo sapiens, UniProt P11362) | enzyme activity, inhibitor |  | 10 µM |  | inhibition | -45%
N[C@H](Cc1ccccc1)P(=O)(O)O | PAL1 Y110F | binding, ITC |  |  |  | ΔG | -7.2 kcal/mol
C[C@@H](O)[C@@H]1CN([C@@H](CC2CCCCC2)CN2CCC[C@H]2CN2CCNC[C@@H]2Cc2ccc3ccccc3c2)CCN1CCCC1CCCC1 | Oprd1 | radioligand binding | rat brain membranes | 500 nM, pH 7.5, 25 °C, with: 2 nM [3H]DPDPE |  | remaining binding | 92.2%
O=C(N[C@@H]1c2ccccc2C[C@H]1N1CCCC1)c1ccc(-c2ccnc3[nH]ccc23)nc1 | Serine/threonine-protein kinase 33 (STK33, Homo sapiens, UniProt Q9BYT3) | binding, competition with immobilised ligand |  | 3 µM |  | remaining binding | 37%
CN(C)[C@H](CNC(=O)/C=C/c1cccc2ccccc12)Cc1ccc(O)cc1 | Mu-type opioid receptor (OPRM1, Homo sapiens, UniProt P35372) | β-arrestin recruitment, agonist | HEK-293T |  |  | Emax | < 5%

Repeated from above:
Compound | target or system | assay | test system | setting | how to read | endpoint | result
CCCC[C@H]1CNCCN1C[C@@H]1CCCN1C[C@@H](Cc1ccc2ccccc2c1)N1CCN(CCCC2CCCC2)[C@H](Cc2ccc(O)cc2)C1 | Oprd1 | radioligand binding | rat brain membranes | 500 nM, pH 7.5, 25 °C, with: 2 nM [3H]DPDPE |  | remaining binding | 78.2%
O=C1NC(=O)c2c1c1cc(F)c[n+]3c1c1c2c2cc(O)ccc2[n]1[Ru-4]312([N]=C=S)[S+]3CC[S+]1CC[S+]2CC3 (stereo not shown) | cGMP-dependent protein kinase 1 (PRKG1, Homo sapiens, UniProt Q13976) | enzyme activity |  | 100 nM, human enzyme, with: 10 µM ATP | relative to: untreated | remaining activity | 10%
CC(C)[C@H]1NC(=O)C[C@H]2/C=C/CCSSC[C@@H](NC1=O)C(=O)N[C@H](Cc1cccc3ccccc13)C(=O)NCC(=O)O2 | Tyrosine-protein kinase receptor UFO (AXL, Homo sapiens, UniProt P30530) | enzyme activity, inhibitor |  | 10 µM |  | inhibition | 7.8%
Cc1nnc(C(C)C)n1C1CC2CCC(C1)N2CCC(NC(=O)Cc1ccc(-c2nncnn2)cc1)c1ccccc1 (stereo not shown) | C-C chemokine receptor type 5 (CCR5, Homo sapiens, UniProt P51681) | calcium mobilisation, antagonist | HEK-293T expressing CCR5 | top constrained to 1, with: PSC-RANTES |  | bottom of curve | 0.124 fraction of maximum
